Measurements of several laboratories.
Each numbered part is a random draw from the data of one study; scales do not carry over between parts. Values joined by “and” are separate records of one study, mostly repeats; a detail may differ.

Set 1
Target: Tyrosine-protein kinase ITK/TSK (ITK, Homo sapiens, UniProt Q08881)
Read-out: enzyme activity
Mode: inhibitor
Tested at: 0.5 µM
Reference: control
Measurement: remaining activity
Target sequence (Q08881 1-620): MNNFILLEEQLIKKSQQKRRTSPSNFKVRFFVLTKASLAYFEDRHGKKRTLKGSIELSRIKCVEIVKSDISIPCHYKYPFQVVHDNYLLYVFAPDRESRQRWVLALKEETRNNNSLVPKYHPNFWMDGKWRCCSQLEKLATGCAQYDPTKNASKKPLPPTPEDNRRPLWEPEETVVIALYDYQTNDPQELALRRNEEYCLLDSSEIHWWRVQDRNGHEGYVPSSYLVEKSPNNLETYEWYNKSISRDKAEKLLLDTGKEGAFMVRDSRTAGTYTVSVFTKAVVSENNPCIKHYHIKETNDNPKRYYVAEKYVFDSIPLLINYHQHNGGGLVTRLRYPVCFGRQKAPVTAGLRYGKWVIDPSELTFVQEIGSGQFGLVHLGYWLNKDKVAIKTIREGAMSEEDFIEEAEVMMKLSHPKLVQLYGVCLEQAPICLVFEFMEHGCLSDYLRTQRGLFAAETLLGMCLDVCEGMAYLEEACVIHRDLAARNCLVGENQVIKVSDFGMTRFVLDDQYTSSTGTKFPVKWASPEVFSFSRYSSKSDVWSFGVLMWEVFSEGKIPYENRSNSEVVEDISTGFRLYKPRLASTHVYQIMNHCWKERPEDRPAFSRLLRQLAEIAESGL
N#C/C(=C(/N)SC1C=CC=CC1)c1cccc(C(O)c2ccncc2)c1 (stereo not drawn): 92.3%
O=C(O)/C=C/c1cc(Br)c(Br)c(Br)c1Br: 100%
O=C1NC(=O)/C(=C/c2ccc3c(c2)OC(F)(F)O3)S1: 92.9%
CC(C)(C)c1nc2c3cc[nH]c(=O)c3c3cc(F)ccc3c2[nH]1: 86%
NC(=O)c1ccc(-c2nc(-c3ccc4c(c3)OCCO4)c(-c3ccccn3)[nH]2)cc1: 104%
NC(=O)c1cccc(-c2cc(Nc3ccc(OC(F)(F)F)cc3)ncn2)c1: 95.3%
CC(C)N(CCC(=O)c1ccc2ccccc2c1)Cc1ccccc1: 89.9%
c1cc(-c2cnn3cc(-c4ccc(OCCN5CCCCC5)cc4)cnc23)ccn1: 39.9%
O=c1c(-c2ccc(F)cc2)c(-c2ccncc2)[nH]n1-c1ccc(Cl)cc1: 79.7%
FC(F)(F)c1ccc(/C=C/c2nc(COc3ccc(CCCCn4ccnn4)cc3)co2)cc1: 102%
Nc1nc(Nc2ccc(S(N)(=O)=O)cc2)nn1C(=S)Nc1c(F)cccc1F: 61%
CCCCc1c(-c2ccc(O)cc2)[nH]c2nccnc12: 104%
N#CC(c1ccnc(NCCc2cccnc2)n1)c1nc2ccccc2s1 (stereo not drawn): 98.8%
Clc1ccc(Nc2nnc(Cc3ccncc3)c3ccccc23)cc1: 103%
CC(C)n1cnc2c(Nc3cccc(Cl)c3)nc(NCCO)nc21: 96%
CCN(CC)CCCCN1c2ccccc2Oc2ccc(Cl)cc21: 101%
C[C@@H](N)[C@H]1CC[C@H](C(=O)Nc2ccncc2)CC1: 95.8%
O=C1c2ccccc2-c2nc3nnnn3nc21: 71.5%
CNc1cc2c(Nc3cccc(Br)c3)ncnc2cn1: 92.5%
O=C(c1ccccc1)c1ccc(N2CCOCC2)cc1O: 99.5%
O=Nc1c(-c2c(O)[nH]c3ccccc23)[nH]c2ccccc12: 53%

Set 2
Cell line: mouse MPNST tumor cells
Method: high-content immunofluorescence imaging
Item: nuclear SOX9
Tested at: 10 µM
Time: 12 h
Notes: mean of 2 replicates
Reference: DMSO control
Direction: higher = more nuclear SOX9
Measurement: nuclear SOX9 intensity
CC(C)(Sc1ccc(CCN(CCCCC2CCCCC2)C(=O)NC2CCCCC2)cc1)C(=O)O: 105 % of DMSO
CN(C)CCN(Cc1cccs1)c1ccccn1: 112 % of DMSO
COc1ccccc1N1CCN(CC(O)COc2cccc3ccccc23)CC1 (stereo not drawn): 124 % of DMSO and 108 % of DMSO
NNCCc1ccccc1: 104 % of DMSO
CN(C)CC[C@@H](c1ccc(Cl)cc1)c1ccccn1: 118 % of DMSO
COc1ccc(S(=O)(=O)Nc2cc(Cl)cc(Cl)c2OC)cc1N1CCNCC1: 131 % of DMSO
NS(=O)(=O)Cc1noc2ccccc12: 106 % of DMSO and 94.3 % of DMSO and 103 % of DMSO
CC(C)c1cccc2c(-c3ccccc3)cc(-c3ccc(-c4ccc(C(=O)O)cc4)[nH]3)nc12: 103 % of DMSO
CCOc1ccc2ccccc2c1C(=O)N[C@@H]1C(=O)N2[C@@H]1SC(C)(C)[C@@H]2C(=O)O: 93.2 % of DMSO
O=C(c1cc(C2CC2)on1)N(C1CCCCC1)C1CCCCC1: 107 % of DMSO

Set 3
Host: mouse
Matrix: microsomes or S9
Tested at: 2 µM
Time: 0.5 h
Measurement: remaining compound
CS(=O)(=O)NCC1COCCN1C(=O)Nc1ccc2cnccc2c1 (stereo not drawn): 59.2%
COc1ccc2c(cc(C(=O)Nc3ccccc3OCC3CCCCO3)n2C)c1OC (stereo not drawn): 8.61%
O=C(O)C1CC[C@@H](c2ccccc2)N1C(=O)C1CCCS1(=O)=O (stereo partly drawn): > 100%
Cc1cccc(NC(=O)C2CCCN(S(=O)(=O)c3c[nH]c(C(=O)N4CCCC4)c3)C2)c1C (stereo not drawn): 3.22%
O=C1CCC(=O)N1OCCCOc1ccc2c(c1)CCC2: 35.2%
CC(C)c1ccccc1NC(=O)N1CCC[C@H]2C(=O)NC[C@H]21: 77.7%
CC(C)(C)c1cc(-c2nc3c4c(ncn3n2)CCC4)n[nH]1: 39.1%
O=C(C1CCC1)N(C1CCCCC1)C1CCCCC1: 0.964%
COc1ccc2c(c1OC)C(=O)OC2c1c(O)cc(C)n(Cc2ccccn2)c1=O (stereo not drawn): > 100%

Set 4
Compound: CC(C)n1cnc(-c2ccc(F)cc2)c1-c1ncc(C(=O)Nc2ccc(N3CCN(C)CC3)cc2)[nH]1
Measurement: patients with pulmonary embolism
human, idiopathic pulmonary fibrosis; 30 mg once daily, trial, treatment-emergent: 0%
phase 2a trial; idiopathic pulmonary fibrosis patients; all arms, grade 2 emergent event: 0%
phase 2a trial; idiopathic pulmonary fibrosis patients; all arms, grade 1 emergent event: 0%
phase 2a trial; idiopathic pulmonary fibrosis patients; 60 mg once daily, grade 3 emergent event: 0%
phase 2a trial; idiopathic pulmonary fibrosis patients; 60 mg once daily, grade 4 emergent event: 0%
phase 2a trial; idiopathic pulmonary fibrosis patients; 60 mg once daily, grade 5 emergent event: 0%
phase 2a trial; idiopathic pulmonary fibrosis patients; 60 mg once daily, grade 2 emergent event: 0%
phase 2a trial; idiopathic pulmonary fibrosis patients; 30 mg once daily, grade 1 emergent event: 0%
phase 2a trial; idiopathic pulmonary fibrosis patients; 30 mg once daily, grade 3 emergent event: 0%
phase 2a trial; idiopathic pulmonary fibrosis patients; all arms, grade 5 emergent event: 0%

Further values, each from its own experiment
CN(C)C(=O)N1CC[C@H](N=C2Nc3cc(F)ccc3N(CC(F)F)c3ccc(Cl)cc32)C1 — viability (sample J colorectal tumour organoid; 0.1 µM; reference: DMSO): 105%

Some of these lines once more (set 2):
NNCCc1ccccc1: 104 % of DMSO
CC(C)(Sc1ccc(CCN(CCCCC2CCCCC2)C(=O)NC2CCCCC2)cc1)C(=O)O: 105 % of DMSO
O=C(c1cc(C2CC2)on1)N(C1CCCCC1)C1CCCCC1: 107 % of DMSO
